Measurements pooled from the literature.
A part holds a random share of what one study measured.

Set 1
Target: Sal-like protein 4, full length isoform B (SALL4, Homo sapiens, UniProt Q9UJQ4-2, residues 1-616)
Technique: universal PBM
Form: double-stranded DNA, one strand shown
Medium: in vitro
Tested at: not given
Notes: 8-mer, flanks averaged, mean of replicates
Reading: higher = stronger binding
Endpoint: E-score
Target sequence (chain): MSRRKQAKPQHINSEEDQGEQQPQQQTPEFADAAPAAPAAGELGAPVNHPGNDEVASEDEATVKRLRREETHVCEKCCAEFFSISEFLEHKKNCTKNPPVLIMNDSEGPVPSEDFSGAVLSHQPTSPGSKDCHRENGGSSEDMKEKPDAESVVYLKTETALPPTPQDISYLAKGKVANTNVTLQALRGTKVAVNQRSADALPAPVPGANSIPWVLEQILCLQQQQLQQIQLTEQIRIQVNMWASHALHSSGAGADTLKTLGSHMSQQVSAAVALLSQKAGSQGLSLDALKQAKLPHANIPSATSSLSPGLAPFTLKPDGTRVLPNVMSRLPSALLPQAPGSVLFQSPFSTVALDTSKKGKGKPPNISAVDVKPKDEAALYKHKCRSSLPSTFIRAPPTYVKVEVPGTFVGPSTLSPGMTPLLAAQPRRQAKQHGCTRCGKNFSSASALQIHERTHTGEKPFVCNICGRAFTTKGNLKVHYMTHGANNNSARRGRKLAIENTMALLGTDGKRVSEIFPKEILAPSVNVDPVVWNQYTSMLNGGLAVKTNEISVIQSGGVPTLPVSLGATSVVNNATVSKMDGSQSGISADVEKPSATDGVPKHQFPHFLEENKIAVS
Oligonucleotide = ATATCTGG; value = 0.216
Oligonucleotide = GGAACAAA; value = 0.164
Oligonucleotide = ATAGTCGA; value = 0.0912
Oligonucleotide = GCGTTCAC; value = -0.0752
Oligonucleotide = CTTATCCA; value = 0.135
Oligonucleotide = GGGCTTAC; value = -0.186
Oligonucleotide = GAACACCC; value = -0.246
Oligonucleotide = GACAATTA; value = 0.318
Oligonucleotide = CACTAAGG; value = -0.188
Oligonucleotide = AAATGACC; value = 0.0532
Oligonucleotide = GGAGGCAA; value = -0.248
Oligonucleotide = CCGTGGAG; value = -0.228
Oligonucleotide = CTCGCTTC; value = -0.142
Oligonucleotide = AGGGGATC; value = -0.0775
Oligonucleotide = TAGAATAA; value = 0.285
Oligonucleotide = ATCGGTAG; value = 0.157
Oligonucleotide = CAACACCG; value = -0.177
Oligonucleotide = AAGACGAA; value = 0.182
Oligonucleotide = AAAGGAAT; value = 0.162
Oligonucleotide = CTGGGCCA; value = -0.222
Oligonucleotide = GCCCTCGC; value = -0.307
Oligonucleotide = AACAGAAG; value = 0.112
Oligonucleotide = GAAGCGGA; value = -0.178
Oligonucleotide = AGTCGCCA; value = -0.272
Oligonucleotide = GTGATGGA; value = -0.0692

Set 2
Target: Histone acetyltransferase KAT6A, winged helix 2, GST fusion (KAT6A, Homo sapiens, UniProt Q92794, residues 85-181)
Technique: protein binding microarray
Form: double-stranded DNA, one strand shown
Medium: in vitro
Tested at: not given
Notes: 8-mer, flanks averaged, mean of 2 arrays, mostly near background
Baseline: not given
Reading: higher = stronger binding
Endpoint: E-score
Construct (chain): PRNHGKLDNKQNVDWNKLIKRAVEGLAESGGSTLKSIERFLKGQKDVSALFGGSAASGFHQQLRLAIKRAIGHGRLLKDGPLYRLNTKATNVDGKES
Oligonucleotide = AGACGCAT; value = -0.0654
Oligonucleotide = AATTAGGT; value = 0.167
Oligonucleotide = GGTCTTTA; value = 0.134
Oligonucleotide = ATTGGCGA; value = -0.0611
Oligonucleotide = ACCGTTAG; value = -0.0868
Oligonucleotide = GCGACTGA; value = 0.0546
Oligonucleotide = CGCCAAAC; value = 0.0999
Oligonucleotide = ATACAGTA; value = -0.13
Oligonucleotide = CAAGGCAA; value = 0.0878
Oligonucleotide = GCCTTGCA; value = 0.0227
Oligonucleotide = GGAATACA; value = -0.0573
Oligonucleotide = ACTGAATG; value = -0.122
Oligonucleotide = AACGGTTG; value = -0.117
Oligonucleotide = CAGAAATG; value = 0.0578
Oligonucleotide = CCTTCAGA; value = -0.178
Oligonucleotide = CGGGAGGA; value = 0.152
Oligonucleotide = ACTTGTCC; value = -0.132
Oligonucleotide = CACTCGGA; value = 0.19
Oligonucleotide = GTCGGATA; value = -0.0251
Oligonucleotide = CGGTTGGC; value = 0.272
Oligonucleotide = GACTAGCA; value = -0.0867
Oligonucleotide = CCTAAGTA; value = -0.0655
Oligonucleotide = CTTGAGAA; value = -0.103
Oligonucleotide = AAGCCTCC; value = 0.122
Oligonucleotide = AGGGCAAA; value = -0.0308

Set 3
Target: Prothrombin, mature alpha-thrombin (F2, Homo sapiens, UniProt P00734)
Technique: aptamer microarray, sandwich
Form: DNA with 2'F-ANA
Medium: in vitro
Tested at: 200 nM
Notes: whole 15-mer aptamer, many near background
Added: Cy3 exosite-II aptamer, 400 nM
Reading: higher = stronger binding
Endpoint: mean fluorescence intensity
Oligonucleotide: GGTTGGTGTGGTTGG
Modification = 2'F-ANA at 4 5 10 11 13 15; value = 48.7 a.u.
Modification = 2'F-ANA at 3 4 6 10 11 13 15; value = 199 a.u.
Modification = 2'F-ANA at 3 4 7 8 9 10 11 12 13 14; value = 194 a.u.
Modification = 2'F-ANA at 1 3 4 5 6 7 9 11 12 14 15; value = 47.4 a.u.
Modification = 2'F-ANA at 1 2 3 4 6 7 12 13 14; value = 68.5 a.u.
Modification = 2'F-ANA at 1 2 3 4 5 8 10 14 15; value = 55 a.u.
Modification = 2'F-ANA at 2 5 6 9 10 13; value = 47.5 a.u.
Modification = 2'F-ANA at 2 4 5 6 7 9 10 12 13 14 15; value = 51.5 a.u.
Modification = 2'F-ANA at 1 3 14 15; value = 83.7 a.u.
Modification = 2'F-ANA at 1 4 5 12 13 14 15; value = 50.4 a.u.
Modification = 2'F-ANA at 2 6 7 8 13 14 15; value = 151 a.u.
Modification = 2'F-ANA at 1 2 3 5 7 10 11 12 14 15; value = 45 a.u.
Modification = 2'F-ANA at 1 5 6 7 9 10 11 14; value = 46.6 a.u.
Modification = 2'F-ANA at 1 2 3 4 5 6 7 10 11 12 15; value = 59 a.u.
Modification = 2'F-ANA at 1 2 3 4 7 9 10 11 12 13 14; value = 58 a.u.
Modification = 2'F-ANA at 1 3 4 6 7 8 12 13 15; value = 323 a.u.
Modification = 2'F-ANA at 1 3 5 6 8 9 10 14 15; value = 46.5 a.u.
Modification = 2'F-ANA at 2 5 8 9 10 14; value = 172 a.u.
Modification = 2'F-ANA at 1 2 6 7 8 9 11 12 13; value = 217 a.u.
Modification = 2'F-ANA at 1 4 5 7 8 10 14 15; value = 47.8 a.u.
Modification = 2'F-ANA at 5 6 8 12 13; value = 157 a.u.
Modification = 2'F-ANA at 1 2 3 6 7 12; value = 415 a.u.
Modification = 2'F-ANA at 1 3 4 5 8 9 11 15; value = 67.4 a.u.
Modification = 2'F-ANA at 2 4 7 9 10 12 13 15; value = 110 a.u.

Set 4
Target: RNA binding protein fox-1 homolog 2, RRM domain, GST-SBP tag (RBFOX2, Homo sapiens, UniProt O43251-10, residues 100-194)
Technique: RNA Bind-n-Seq
Form: RNA
Medium: in vitro
Tested at: 365 nM
Notes: natural RNA segment, single round, ends assumed
Baseline: no-protein control
Reading: higher = stronger binding
Endpoint: RBNS enrichment (R)
All sequences stand within: GGGAGUUCUACAGUCCGACGAUC … UGGAAUUCUCGGGUGCCAA
Construct (chain): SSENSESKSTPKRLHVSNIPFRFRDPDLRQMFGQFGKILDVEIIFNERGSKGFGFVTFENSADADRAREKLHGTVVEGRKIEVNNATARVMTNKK
Oligonucleotide = AAGGGAGAGGGGAACUACCCCCCCAGCCUGCCCUCCGCCCCGCCCCAGCCGGCGGACUGUGCUGUUUCCUCCGCCCCCACUCCCGUGUUUUCUGACCUCCUGCCUGAGUU; value = 1.14
Oligonucleotide = AGGGAGCCCUCAGGUCUAUAGGAAAGGCCCCUCUUAAGACAGAAACGGUUUAACAGCAAGGGUACAAAGGCUGUAGUUUGAGGCCAGAGCAAUUAGCGCUUGUCAGCUUA; value = 0.524
Oligonucleotide = ACCAUUGUCUCCCCGCUGAACUCGGCUGCCUUGCCACCGAGGUGCCAGCCAGGCUAGAGGAGUGCCAGCAGGUCCCAGUAGGUCCUUAGGAAGGCUGUCAAGGCCCAGUC; value = 0.266
Oligonucleotide = CUUUGCCUGUAGGAUGUACUGUAUGUAGUCAUGCACUUUGUAUUAAUAUAUUAGAAAUCUACAGAUCUGUUUUGUACUUUUUAUACUGUUGGAUACUUAUAAUCAAAACU; value = 30.5
Oligonucleotide = AGCUCUUUGGCUCGUGAACCUAAUUGUAAACUUUCAGGUAUUUUUGUACAAAUAAGGGACUGAUGUUCUGUUUCUUGUAAUUAGAAAUAAACAUUAAUACAGUGUUCUUC; value = 0.304
Oligonucleotide = ACAAUGCUUUAUUGAAAAGCUUCAAAGUUCAUUAAGCUGAUGCAGUGCUUAGAGAGAGCAAUGUCCAAUCUGUGGCUUGGGAGGUGUCUGCAAGUGACAUUCCUGCGAGC; value = 0.699
Oligonucleotide = AAGUGCCUCCCUCCCUCCUCCUCUUUACUGAAACUGAAACCAAAGCGUUCACAGUUAGAUUUUCACCUCGUGCCACUCUCUUUUGGGGUCUGGCUUGAGCAUCUAUGGGC; value = 0.594
Oligonucleotide = CUACCAAUCUGAAUUCGAGGCCCAUAUGAGAGGAGCUUAGAAACGACCAAGAAGAGAGGCUUGUUGGAAUCAAUUCUGCACAAUAGCCCAUGCUGUAAGCUCAUAGAAGU; value = 0.32

Excerpt of the above (set 1):
Oligonucleotide = CACTAAGG; value = -0.188
Oligonucleotide = GCCCTCGC; value = -0.307
Oligonucleotide = CTGGGCCA; value = -0.222
Oligonucleotide = AAAGGAAT; value = 0.162
Oligonucleotide = AGTCGCCA; value = -0.272
Oligonucleotide = AACAGAAG; value = 0.112
Oligonucleotide = GGAACAAA; value = 0.164
Oligonucleotide = GGAGGCAA; value = -0.248
Oligonucleotide = TAGAATAA; value = 0.285
Oligonucleotide = GCGTTCAC; value = -0.0752
Oligonucleotide = ATAGTCGA; value = 0.0912
Oligonucleotide = GTGATGGA; value = -0.0692
Oligonucleotide = CTTATCCA; value = 0.135
